# Measurements from different studies.
# Protocols differ between the studies behind these lines. ± gives the spread as reported.
# Cell line: MCF7
Structure (SMILES),observed,method,time,setting,IC50
c1ccc(-c2cc(-c3ccc(-n4cc(-c5ccc6sc7ccccc7c6c5)nn4)cc3)cc(-c3ccccn3)n2)nc1,cell growth or viability,MTS,72 h,,1.73 µM
CCOc1cccc2c1[O][Pt-2]1([Cl])[N+](=C2)c2ccccc2[NH+]1c1ccccc1 (centres unmarked),cell growth or viability,MTT,,,11 µM
C=C(C)[C@@H]1CC[C@]2(C(=O)OCO/N=[N+](\[O-])N3CCCC3)CC[C@]3(C)[C@H](CC[C@@H]4[C@@]5(C)CC[C@H](OC(C)=O)C(C)(C)[C@@H]5CC[C@]43C)[C@@H]12,cell growth or viability,MTT,72 h,,0.92 µM
CC(C)(C)c1ccc2[c](c1)[Au-]1([Cl])[c]3cc(C(C)(C)C)ccc3-c3cncc-2[n+]31,cell growth or viability,MTS,,,8.6 µM
C=C(C)[C@H]1CC[C@@]2(C)CC[C@]3(C)C[C@H]4[C@@H](C)CC[C@H]4/C(C)=C\C[C@H]3[C@H]12,cell growth or viability,MTT,72 h,,> 500 µM
COc1c(O)cc2oc3cc4c(c(O)c3c(=O)c2c1CCC(C)(C)O)CCC(C)(C)O4,cell growth or viability,,48 h,,> 40 µM
Cc1ccc(C(C)C)cc1.Cl.[Cl][Ru+].[Ru+].c1ccc(-c2cn(CCCCOc3ccccc3-c3nc4ccccc4s3)nn2)nc1,cytotoxicity,MTT,48 h,,7.85 ± 3.09 µM
C=C(CO)[C@@H]1CC[C@]2(C)CC[C@]3(C)[C@H](CC[C@@H]4[C@@]5(C)CCC(=O)C(C)(C)C5CC[C@]43C)C12 (some centres unmarked),cell growth or viability,SRB,,,12.2 µM
CCCCn1cc(C(=O)O)c(=O)c2cc(F)c(Nc3ccc(C)cc3)c(N)c21,cell growth or viability,SRB,72 h,,6.5 µg/mL
Cn1c(SCC(=O)N2CCC(=C3c4ncccc4CCc4cc(Cl)cc(Br)c43)CC2)nnc1-c1ccccc1,cell growth or viability,SRB,,,70 µM
Cc1cc(N2CCN(C(=O)CN3CCN(c4ccccc4)CC3)CC2)n2ncnc2n1,cell growth or viability,MTT,,,6.93 µM
COc1ccccc1/C=N/NC(=O)c1cc2cc(Nc3nccc(-c4cccnc4)n3)ccc2[nH]1,cell growth or viability,MTT,48 h,,3.36 µM
CCC1=C(CC)C2=[N+]3C1=Cc1c(CC)c(CC)c4[n]1[Ir-3]31([Cl])([C]#[O+])[n]3c(c(CC)c(CC)c3=CC3=[N+]1C(=C4)C(CC)=C3CC)=C2,cell growth or viability,MTT,72 h,,> 50 µM
NS(=O)(=O)c1ccc(/N=N/c2ccc(O)c(/C=N/c3nccs3)c2)cc1,cell growth or viability,MTT,72 h,,6.82 µM
CC(=O)N[C@H](CCCNC(=N)N)C(=O)N[C@@H](CC(=O)N[C@H](Cc1ccccc1)C(=O)N[C@H](CC(=O)O)C(N)=O)c1ccc2ccccc2c1,cell growth or viability,ATP luminescence,72 h,,> 50 µM
CC1=CC(C)=[O+][Pt-2]([NH3+])([NH3+])[O]1.CC1=CC(C)=[O+][Pt-2]([NH3+])([NH3+])[O]1.O=S(=O)([O-])[O-] (centres unmarked),cell growth or viability,MTT,,,76 µM
CCCCCCCCCCCCOc1c(O)cc(C(=O)O[C@@H]2Cc3c(O)cc(O)cc3O[C@@H]2c2cc(O)c(O)c(O)c2)cc1O,cell growth or viability,CCK-8,24 h,,96.9 µM
CC=C(C)C(=O)OC1C(O)C2(CO)C(CC1(C)C)C1=CCC3C4(C)CCC(O)C(C)(CO)C4CCC3(C)C1(C)C(O)C2O (centres unmarked),cell growth or viability,CCK-8,48 h,,51.5 µM
N#Cc1cc(C(=O)c2ccc3ccccc3c2O)c[nH]c1=O,cell growth or viability,MTT,48 h,,9.6 µM
CC(=O)c1ccc(NC(=O)CCc2nc3cc(Cl)ccc3[nH]c2=O)cc1,cell growth or viability,MTT,,,76.7 µM
CCCCCCCCCCCCCCCOC(=O)/C=C/c1ccc(OC)c(OC)c1,cell viability,MTT,48 h,serum-free medium,3.2 ± 0.3 µg/mL
CSc1nc(Nc2cccc(/C(C)=N/NC(=O)c3ccc([N+](=O)[O-])cc3)c2)c(C#N)c(-c2ccccc2)n1,cell growth or viability,MTT,48 h,,10.3 µM
CCCc1cc(O)nc(SCCOC(=O)[C@]2(C)CCC[C@]3(C)c4ccc(C(C)C)cc4CCC23)n1 (some centres unmarked),cell growth or viability,MTT,48 h,,7 µM
CSC(=S)N/N=C(\C)c1ccc(Nc2nnc(-c3ccc(Cl)cc3)c3ccccc23)cc1,cell growth or viability,MTT,,,0.28 µM
O=[C]=[Re-2]1(=[C]=O)(=[C]=O)([O]S(=O)(=O)c2ccc3ccccc3c2)[n+]2ccc(-c3ccccc3)c3ccc4c(-c5ccccc5)cc[n+]1c4c32,cell growth or viability,resazurin,72 h,,1.31 µM
CC(=O)N[C@@H]1[C@@H](OC(C)=O)[C@H](OC(C)=O)[C@@H](COC(C)=O)O[C@H]1Sc1nnc(-c2cc3ccccc3[nH]2)n1-c1ccccc1,cell growth or viability,MTT,,,17.2 µM
Cn1ccn(N=Cc2ccccc2SSc2ccccc2C=Nn2ccn(C)c2=S)c1=S,cell growth or viability,MTT,72 h,,0.36 µM
N.N.O=C(CCCc1ccccc1)[O][Pt]([Cl])([Cl])[O]C(=O)CCCc1ccccc1,cytotoxicity,,72 h,,0.18 ± 0.03 µM
C[C@@H]1CC[C@@H]([C@](O)(COCc2ccccc2)Cn2cnc3ccccc32)[C@H](OCc2ccccc2)C1,cell growth or viability,MTT,72 h,,5.7 µM
CSC(=NN=C(C)c1ccc(S(=O)(=O)N2CCC(C)CC2)cc1)N(C)C,cell growth,MTT,,,3.53 to 5.58 µM
CC1=C2[O][Ru-]([Cl])[O+]=C2C=CN1CCCCCCCCCCCCN1C=CC2=[O+][Ru-]([Cl])[O]C2=C1C.Cc1ccc(C(C)C)cc1.Cc1ccc(C(C)C)cc1,cell growth or viability,crystal violet,96 h,,2.1 µM
COc1ccc(-c2noc(NC(=O)c3ccc(F)c(F)c3)c2C#N)c(OC)c1,cell growth or viability,MTT,72 h,,70 µM
CCCCCCCCCCCCCCCCn1c(-c2cccnc2)nc(-c2ccc(C)cc2)c1-c1ccc(C)cc1,cell growth or viability,SRB,48 h,,> 100 µM
CC(=O)O[C@@H]1C[C@H]2C(C)(C)[C@H](O)CC[C@]2(C)[C@H]2CC[C@@]3(C)C(=CC[C@H]3[C@@H](C)C[C@@H](O)[C@H](O)C(C)(C)O)[C@@]21C,cell growth or viability,MTT,,,13.3 µM
COc1ccc(COC[C@](O)(CNCc2ccc(F)cc2)[C@@H]2CC[C@@H](C)C[C@H]2OCc2ccc(OC)cc2)cc1,cell growth or viability,MTT,72 h,,1.3 µM
C[C@]12CC/C(=N/O)C=C1CCC1C2CC[C@]2(C)/C(=C/c3ccccn3)CCC12 (some centres unmarked),cell growth or viability,MTT,72 h,,44.9 µM
CC(=O)[O-].O.O.O.O.[Mn+2].[O-]c1ccc(Br)cc1C=NCCN1CCOCC1,cell viability,MTT,72 h,,26.1 µg/mL
COc1cc(/C=C/C(=O)CC(C)=O)ccc1O,cell growth or viability,MTT,48 h,,35 µM
[NH2][Pt]1([NH2])([Cl])([O]C(=O)C(Cl)Cl)[O]C(=O)C2(CC(=O)C2)C(=O)[O]1,cell growth or viability,MTT,,,27.1 µM
COc1ccc(NC(=O)N/N=C2\CC3(CCN(C)CC3)Oc3ccccc32)cc1,cell growth or viability,MTT,48 h,,6.67 µM
O=C(c1ccc2ccccc2c1)c1cn(-c2ccccc2)nc1C1=Nn2c(CCCCc3nnc4n3N=C(c3nn(-c5ccccc5)cc3C(=O)c3ccc5ccccc5c3)CS4)nnc2SC1,cell growth or viability,MTT,48 h,,15.6 µM
O=C(/C(Br)=N/Nc1ccccc1)c1ccccc1,cell growth,MTT,,,11.2 to 19.5 µM
[Cl][Au-]1([Cl])[N+](=P(c2ccccc2)(c2ccccc2)C2C=CC=C2)Cc2cccc[n+]21.[Cl][Au-]1([Cl])[N+](=P(c2ccccc2)(c2ccccc2)C2C=CC=C2)Cc2cccc[n+]21.[Fe+2].[O-][Cl+3]([O-])([O-])[O-].[O-][Cl+3]([O-])([O-])[O-],cell growth or viability,MTT,74 h,,3.5 µM
O=C(NCCCCCCNc1n[n+]([O-])c2ccccc2[n+]1[O-])C(F)(F)F,cytotoxicity,MTT,24 h,normoxia,> 107 µM

# Excerpt of the above:
Structure (SMILES),observed,method,time,setting,IC50
O=C(c1ccc2ccccc2c1)c1cn(-c2ccccc2)nc1C1=Nn2c(CCCCc3nnc4n3N=C(c3nn(-c5ccccc5)cc3C(=O)c3ccc5ccccc5c3)CS4)nnc2SC1,cell growth or viability,MTT,48 h,,15.6 µM
N#Cc1cc(C(=O)c2ccc3ccccc3c2O)c[nH]c1=O,cell growth or viability,MTT,48 h,,9.6 µM
